Measurements of several laboratories.
Every numbered part comes from another study and shows a few of its results, in no order. Changes are numbered by the printed parent chain.

Series 1 — target: CCND3, cyclin fold, Cln2 fusion (human); technique: yeast growth competition, sequencing; matrix: yeast; notes: weak parent motif; reference: not given; reading: higher = stronger binding; endpoint: normalised enrichment score
Starting sequence: CDC6 docking peptide (human); TLKGRRLVFDNQL; partner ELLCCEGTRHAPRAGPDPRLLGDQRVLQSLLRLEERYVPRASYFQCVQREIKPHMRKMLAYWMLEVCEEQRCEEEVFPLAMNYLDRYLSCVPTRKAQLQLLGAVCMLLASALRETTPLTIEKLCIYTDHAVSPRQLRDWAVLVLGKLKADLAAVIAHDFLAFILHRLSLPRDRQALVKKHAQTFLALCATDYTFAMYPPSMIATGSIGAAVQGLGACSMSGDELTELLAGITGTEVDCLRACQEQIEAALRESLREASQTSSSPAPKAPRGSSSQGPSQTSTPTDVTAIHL
V8H: 0.157
F9S: 0.0871
R6S: -0.0213
G4L: 0.0099
L2M: 0.129
L2D: 0.0493
L7H: 0.0372
V8T: 0.136
F9P: 0.186

Series 2 — technique: protein binding microarray; form: double-stranded DNA, one strand shown; matrix: in vitro; concentration: not given; reference: not given; reading: higher = stronger binding; endpoint: E-score
Target: Histone acetyltransferase KAT6A, winged helix 2, GST fusion (KAT6A, Homo sapiens, UniProt Q92794, residues 85-181)
Notes: 8-mer, flanks averaged, mean of 2 arrays, mostly near background
Residues (chain): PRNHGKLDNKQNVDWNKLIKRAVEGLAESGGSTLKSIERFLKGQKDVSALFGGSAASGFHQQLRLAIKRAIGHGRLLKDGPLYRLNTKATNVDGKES
AAACAATG: -0.0335
CGATGGCG: -0.0543
AGGACAGG: 0.0829
ATCAACAT: 0.0365
GGCCCAAC: 0.0203
AGAGATAC: -0.022
CCTTACGC: -0.0897
ATGCAGGA: -0.269
AGCGAACC: -0.00406

Series 3 — technique: universal PBM; form: double-stranded DNA, one strand shown; matrix: in vitro; concentration: not given; reading: higher = stronger binding; endpoint: E-score
Target: Sal-like protein 4, full length isoform B (SALL4, Homo sapiens, UniProt Q9UJQ4-2, residues 1-616)
Notes: 8-mer, flanks averaged, mean of replicates
CCTTGTAA: 0.301
CCGCCTTC: -0.203
GAGAGTCC: -0.22
TAAGACCA: 0.0511
GTAAAGAA: 0.144
CTACGGAA: 0.106

Mixed results
PhoQ, residues 284 288 289 292 302 303 ASSHFY
fold induction (PhoP, residues 12 14 15 18 19 AWHSL (Escherichia coli, UniProt P23836); Sort-seq, item: YFP reporter; E. coli; PhoQ-PhoP variant library, added: 10 µM Mg2+; reference: high Mg2+ state, higher = stronger signaling): 2.13

Some of these lines once more (series 1):
L2M: 0.129
L2D: 0.0493
L7H: 0.0372
